Experimental data collected from several papers.
Parts stem from different laboratories: compare values within a part only. ± marks the error that the study gave.
UniProt Q5XXA6, sequence (whole entry, unmodified, looked up): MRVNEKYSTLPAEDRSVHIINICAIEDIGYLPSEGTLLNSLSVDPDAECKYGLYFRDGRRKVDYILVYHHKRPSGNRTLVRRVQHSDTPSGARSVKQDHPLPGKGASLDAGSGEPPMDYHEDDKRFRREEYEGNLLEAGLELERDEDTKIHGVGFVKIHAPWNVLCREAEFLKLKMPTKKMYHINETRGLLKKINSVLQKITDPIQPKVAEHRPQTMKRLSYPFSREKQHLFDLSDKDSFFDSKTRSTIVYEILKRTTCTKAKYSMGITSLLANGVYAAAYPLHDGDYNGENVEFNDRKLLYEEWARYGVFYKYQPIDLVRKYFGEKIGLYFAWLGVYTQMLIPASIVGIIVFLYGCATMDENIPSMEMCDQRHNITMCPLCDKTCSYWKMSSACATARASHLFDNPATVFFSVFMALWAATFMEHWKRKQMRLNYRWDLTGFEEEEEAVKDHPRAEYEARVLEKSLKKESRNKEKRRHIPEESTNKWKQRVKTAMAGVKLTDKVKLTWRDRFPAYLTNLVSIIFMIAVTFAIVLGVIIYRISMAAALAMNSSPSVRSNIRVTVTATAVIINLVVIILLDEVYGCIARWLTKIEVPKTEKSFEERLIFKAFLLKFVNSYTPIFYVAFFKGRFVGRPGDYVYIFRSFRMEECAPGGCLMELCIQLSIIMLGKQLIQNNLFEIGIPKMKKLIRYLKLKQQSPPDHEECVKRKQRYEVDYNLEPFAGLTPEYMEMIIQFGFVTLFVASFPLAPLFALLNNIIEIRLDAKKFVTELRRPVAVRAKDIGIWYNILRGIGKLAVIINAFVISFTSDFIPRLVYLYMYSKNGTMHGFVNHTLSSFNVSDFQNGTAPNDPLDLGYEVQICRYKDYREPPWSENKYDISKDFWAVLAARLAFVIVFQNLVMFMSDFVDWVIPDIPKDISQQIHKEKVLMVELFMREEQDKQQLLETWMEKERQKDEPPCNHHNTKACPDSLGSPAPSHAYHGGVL
UniProt Q15139, sequence (whole entry, looked up): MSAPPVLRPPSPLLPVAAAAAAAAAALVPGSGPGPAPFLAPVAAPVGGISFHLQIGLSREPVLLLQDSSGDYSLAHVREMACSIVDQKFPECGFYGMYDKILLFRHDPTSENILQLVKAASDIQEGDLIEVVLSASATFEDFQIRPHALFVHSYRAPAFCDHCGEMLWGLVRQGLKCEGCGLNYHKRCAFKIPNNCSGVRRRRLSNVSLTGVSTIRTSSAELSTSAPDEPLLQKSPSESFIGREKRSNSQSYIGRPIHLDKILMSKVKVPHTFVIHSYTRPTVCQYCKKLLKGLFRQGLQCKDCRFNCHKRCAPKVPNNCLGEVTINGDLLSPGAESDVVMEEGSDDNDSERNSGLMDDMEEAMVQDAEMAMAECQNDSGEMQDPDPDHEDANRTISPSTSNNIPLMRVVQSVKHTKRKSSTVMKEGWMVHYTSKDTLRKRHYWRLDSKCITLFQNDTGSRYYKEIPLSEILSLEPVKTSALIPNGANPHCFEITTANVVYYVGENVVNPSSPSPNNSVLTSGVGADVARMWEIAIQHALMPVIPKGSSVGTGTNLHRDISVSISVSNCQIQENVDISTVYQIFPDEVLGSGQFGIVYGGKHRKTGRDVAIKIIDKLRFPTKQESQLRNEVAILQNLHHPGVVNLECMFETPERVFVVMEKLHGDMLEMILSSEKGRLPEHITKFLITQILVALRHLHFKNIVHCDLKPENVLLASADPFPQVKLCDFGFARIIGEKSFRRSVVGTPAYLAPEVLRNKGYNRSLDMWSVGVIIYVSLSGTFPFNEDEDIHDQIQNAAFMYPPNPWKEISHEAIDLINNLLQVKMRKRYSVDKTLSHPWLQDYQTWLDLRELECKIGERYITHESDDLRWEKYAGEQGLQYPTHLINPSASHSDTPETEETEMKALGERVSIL
UniProt P54753, sequence (whole entry, looked up): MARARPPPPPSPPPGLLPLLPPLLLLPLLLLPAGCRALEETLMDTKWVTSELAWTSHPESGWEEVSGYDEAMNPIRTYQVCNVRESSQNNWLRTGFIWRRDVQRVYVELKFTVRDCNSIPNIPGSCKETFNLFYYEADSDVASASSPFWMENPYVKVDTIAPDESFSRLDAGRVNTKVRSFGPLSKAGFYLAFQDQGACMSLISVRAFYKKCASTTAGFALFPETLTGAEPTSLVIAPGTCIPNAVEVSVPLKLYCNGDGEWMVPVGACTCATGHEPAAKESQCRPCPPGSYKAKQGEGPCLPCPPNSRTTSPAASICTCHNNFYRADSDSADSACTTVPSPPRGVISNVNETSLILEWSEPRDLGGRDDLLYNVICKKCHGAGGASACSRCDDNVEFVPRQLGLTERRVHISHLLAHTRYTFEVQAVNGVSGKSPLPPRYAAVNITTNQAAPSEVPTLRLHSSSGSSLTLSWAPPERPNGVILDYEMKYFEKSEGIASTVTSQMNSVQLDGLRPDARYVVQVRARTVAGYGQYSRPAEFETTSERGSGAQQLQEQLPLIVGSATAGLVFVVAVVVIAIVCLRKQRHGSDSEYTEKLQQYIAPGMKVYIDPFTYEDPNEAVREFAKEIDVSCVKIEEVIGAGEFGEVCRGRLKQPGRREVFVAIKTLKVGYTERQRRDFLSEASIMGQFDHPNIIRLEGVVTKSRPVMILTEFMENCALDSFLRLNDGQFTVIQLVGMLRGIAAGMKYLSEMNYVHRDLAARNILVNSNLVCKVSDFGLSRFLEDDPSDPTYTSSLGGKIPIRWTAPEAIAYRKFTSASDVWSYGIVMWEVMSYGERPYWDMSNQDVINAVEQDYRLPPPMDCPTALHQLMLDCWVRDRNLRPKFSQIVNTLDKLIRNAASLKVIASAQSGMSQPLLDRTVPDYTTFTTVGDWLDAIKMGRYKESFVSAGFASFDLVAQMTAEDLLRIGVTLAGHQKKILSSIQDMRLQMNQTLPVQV
UniProt P04629, sequence (whole entry, looked up): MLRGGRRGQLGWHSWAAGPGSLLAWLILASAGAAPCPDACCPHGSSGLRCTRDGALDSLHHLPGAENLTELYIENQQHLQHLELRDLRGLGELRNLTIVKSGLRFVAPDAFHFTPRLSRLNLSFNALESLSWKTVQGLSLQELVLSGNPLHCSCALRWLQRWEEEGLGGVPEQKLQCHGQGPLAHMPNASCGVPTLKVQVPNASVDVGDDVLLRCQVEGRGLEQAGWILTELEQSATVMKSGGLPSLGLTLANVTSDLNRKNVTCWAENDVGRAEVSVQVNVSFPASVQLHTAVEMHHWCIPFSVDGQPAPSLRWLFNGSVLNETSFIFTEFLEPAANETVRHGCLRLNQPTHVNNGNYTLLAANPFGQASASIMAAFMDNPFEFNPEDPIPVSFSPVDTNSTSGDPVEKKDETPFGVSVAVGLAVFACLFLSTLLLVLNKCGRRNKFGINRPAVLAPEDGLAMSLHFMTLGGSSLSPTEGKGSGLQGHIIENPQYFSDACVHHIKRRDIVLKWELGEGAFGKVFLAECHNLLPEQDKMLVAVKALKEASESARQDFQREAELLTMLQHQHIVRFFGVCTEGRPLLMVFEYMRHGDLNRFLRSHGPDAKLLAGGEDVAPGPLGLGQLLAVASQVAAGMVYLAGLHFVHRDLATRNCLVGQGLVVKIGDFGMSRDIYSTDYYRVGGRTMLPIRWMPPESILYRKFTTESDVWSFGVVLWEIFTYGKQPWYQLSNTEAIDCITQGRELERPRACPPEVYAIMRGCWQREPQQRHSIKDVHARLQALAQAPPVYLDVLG
UniProt P37173, sequence (whole entry, looked up): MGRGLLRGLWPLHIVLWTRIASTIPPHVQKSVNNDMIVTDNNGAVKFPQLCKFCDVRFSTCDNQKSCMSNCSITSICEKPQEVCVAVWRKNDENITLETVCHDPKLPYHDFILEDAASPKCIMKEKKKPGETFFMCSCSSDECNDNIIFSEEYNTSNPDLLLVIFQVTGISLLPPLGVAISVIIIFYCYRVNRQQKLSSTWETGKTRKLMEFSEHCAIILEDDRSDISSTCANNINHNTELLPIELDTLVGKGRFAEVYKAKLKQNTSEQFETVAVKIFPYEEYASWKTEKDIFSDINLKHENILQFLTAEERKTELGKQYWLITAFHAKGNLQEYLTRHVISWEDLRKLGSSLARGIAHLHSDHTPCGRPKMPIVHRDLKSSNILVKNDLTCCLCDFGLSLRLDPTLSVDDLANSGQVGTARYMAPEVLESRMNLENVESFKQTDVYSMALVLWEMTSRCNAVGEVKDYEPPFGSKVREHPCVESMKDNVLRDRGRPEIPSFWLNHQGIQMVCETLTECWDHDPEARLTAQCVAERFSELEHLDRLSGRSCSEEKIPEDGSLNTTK

Study 1
Host: mouse
Sample: microsomes or S9
Tested at: 2 µM
Time: 0.5 h
Structure (SMILES)	remaining compound [%]
Cc1cc(-c2ccccc2)nc2c(Br)c(=O)[nH]n12	37.4
COc1cc(OC)cc(-c2nnc(SCC(=O)NC3CC4CCC3C4)[nH]2)c1 (centres unmarked)	1.98
COc1ccccc1CNC(=O)c1c(OC)cc(=O)n2c1CCCC2	16.2
O=C(c1ccc(Nc2cc(-n3cccc3)ncn2)cc1)N1CCN(Cc2ccc3c(c2)OCO3)CC1	23.6
CNC(=O)c1cc2c(F)c(O)ccc2n1-c1cc(F)c(O)c(F)c1	73
CO[C@@H]1CCOC[C@H]1NS(=O)(=O)c1c(Cl)nc2sccn12	18.7
O=c1cc(-c2ccccc2)oc2cc(O)c(O)c(O)c12	41
CCOC(=O)C(=Cc1cn(-c2ccccc2)nc1-c1ccc(OC)c(OC)c1)C(=O)OCC	0.692
COc1cc(C)c(Cl)cc1S(=O)(=O)Nc1ccc(Nc2cc(N(C)C)nc(C)n2)cc1	1.31
CCCN(Cc1nnc(-c2ccco2)o1)C(=O)COc1c(Cl)cc(Cl)c2ccc(C)nc12	83.8

Study 2
Target: Protein kinase C gamma type (PRKCG, Homo sapiens, UniProt P05129)
Observed: enzyme activity
Action: inhibitor
Tested at: 0.5 µM
Relative to: control
SMILES	remaining activity [%]
Oc1ccc(Nc2nc(-c3ccc(Cl)cc3)cs2)cc1	87.3
Cc1cncc2cccc(S(=O)(=O)N3CCCN(C(=O)CN)C[C@@H]3C)c12	101
Nc1nc(Nc2ccc(S(N)(=O)=O)cc2)nn1C(=O)c1c(F)cccc1F	81.3
O=S(=O)(NCCNC/C=C/c1ccc(Br)cc1)c1cccc2cnccc12	83.8
O=C1Cc2c([nH]c3ccc([N+](=O)[O-])cc23)-c2ccccc2N1	92.5
N#CC(=C(N)Sc1ccc(N)cc1)c1ccccc1C(F)(F)F	99.5
Nc1nccc(-c2c(-c3ccc(F)cc3)ncn2C2CCNCC2)n1	87.8
CCCC(=O)Oc1ccc2[nH]c(C(=O)c3cc4ccccc4[nH]3)cc2c1	99
COc1cc(Nc2c(C#N)cnc3cc(OCCCN4CCN(C)CC4)c(OC)cc23)c(Cl)cc1Cl	93.6
NC(=O)c1ccc(N(C(N)=O)c2c(F)cccc2F)nc1-c1ccc(F)cc1F	91.3
CCc1[nH]c(-c2ccc(OC)cc2)nc1-c1ccncc1	95.5
CC(C)(C)n1nc(Cc2cccc3ccccc23)c2c(N)ncnc21	101
Nc1ncnc2c1cnn2-c1ccccc1	103
CC#CC(=O)Nc1cc2c(Nc3ccc(F)c(Cl)c3)ncnc2cn1	97.2
CC[n+]1c(/C=C/N(C)c2ccccc2)n(-c2ccccc2)c2ccc(-c3nc4ccccc4s3)cc21	99.4
Cc1cc(Nc2nc(-c3ccccc3)nc3ccccc23)n[nH]1	98.6
CC(=O)c1ccc(N2CCOCC2)cc1O	98.7
O=C1NC(=O)C(c2c[nH]c3ccccc23)=C1c1c[nH]c2ccccc12	91.4
CSc1nc(-c2ccnc(N[C@@H](C)c3ccccc3)c2)c(-c2ccc(F)cc2)[nH]1 (racemic)	101

Study 3
SMILES: O=C(N1CCS(=O)(=O)CC1)N1C[C@H](c2ccc(OC(F)(F)F)cc2)C[C@H](c2nc(C3CC3)no2)C1
Technique: competition with immobilised ligand
Tested at: 1 µM
target	observed	remaining binding [%]
MAST1 (Homo sapiens, UniProt Q9Y2H9)	cell-free assay	100
TIE1 (Homo sapiens, UniProt P35590)	cell-free assay	100
TEC (Homo sapiens, UniProt P42680)	binding	100
NEK5 (Homo sapiens, UniProt Q6P3R8)	cell-free assay	98
NEK4 (Homo sapiens, UniProt P51957)	cell-free assay	100
MERTK (Homo sapiens, UniProt Q12866)	cell-free assay	100
TRPM6 (Homo sapiens, UniProt Q9BX84)	cell-free assay	100
EPHA3 (Homo sapiens, UniProt P29320)	cell-free assay	100
Tyrosine-protein kinase ABL1, phosphorylated (ABL1, Homo sapiens, UniProt P00519, E255K)	binding	100
EPHB3 (Homo sapiens, UniProt P54753)	cell-free assay	100
NEK1 (Homo sapiens, UniProt Q96PY6)	cell-free assay	100
NTRK1 (Homo sapiens, UniProt P04629)	cell-free assay	87
CLK3 (Homo sapiens, UniProt P49761)	cell-free assay	100
MARK1 (Homo sapiens, UniProt Q9P0L2)	cell-free assay	100
TGFBR2 (Homo sapiens, UniProt P37173)	cell-free assay	100
KIT (Homo sapiens, UniProt P10721, D816H)	cell-free assay	71
EPHA8 (Homo sapiens, UniProt P29322)	cell-free assay	100
FYN (Homo sapiens, UniProt P06241)	cell-free assay	80
SIK2 (Homo sapiens, UniProt Q9H0K1)	cell-free assay	100
PRKD1 (Homo sapiens, UniProt Q15139)	cell-free assay	100
PKN1 (Homo sapiens, UniProt Q16512)	cell-free assay	100
ERBB2 (Homo sapiens, UniProt P04626)	cell-free assay	100
PRKD3 (Homo sapiens, UniProt O94806)	cell-free assay	100
ALK (Homo sapiens, UniProt Q9UM73, C1156Y)	cell-free assay	79

Study 4
SMILES: C=CCc1ccc(O)c(-c2cc(CC=C)ccc2O)c1
Observed: chloride current
Technique: whole-cell voltage clamp
target	action	tested at	setting	with	IC50 [µM]
Anoctamin-1 (ANO1, Homo sapiens, UniProt Q5XXA6, del476-501/M544A)	inhibitor	–	pore pocket mutant M518A at 100 mV	300 nM Ca2+	99 ± 2
Anoctamin-1 (ANO1, Homo sapiens, UniProt Q5XXA6, del476-501/K629R)	inhibitor	20 mV holding voltage	–	–	162
Anoctamin-1 (ANO1, Homo sapiens, UniProt Q5XXA6, del476-501/E649K)	inhibitor	–	E623K mutant at 20 mV	–	176
Anoctamin-1 (ANO1, Homo sapiens, UniProt Q5XXA6, del476-501/F623A)	–	–	membrane voltage 20 mV	–	24.3
Anoctamin-1 (ANO1, Homo sapiens, UniProt Q5XXA6, del476-501/E649D)	inhibitor	–	E623D mutant at -40 mV	–	41.9
Anoctamin-1 (ANO1, Homo sapiens, UniProt Q5XXA6, del476-501/L548A)	–	–	membrane voltage -40 mV	–	37
Anoctamin-1 (ANO1, Homo sapiens, UniProt Q5XXA6, del476-501/F807A)	–	–	membrane voltage -40 mV	–	19.1
Anoctamin-1 (ANO1, Homo sapiens, UniProt Q5XXA6, del476-501/K629I)	inhibitor	20 mV holding voltage	–	–	319
Anoctamin-1 (ANO1, Homo sapiens, UniProt Q5XXA6, del476-501/F646A)	–	–	membrane voltage -20 mV	–	19.3
